{"data": "Results from different studies", "note": "Lines come from different studies, so protocols differ. ± marks the error that the study gave."}
{"Compound": "CONC(=O)[C@H]1[C@@H](O)[C@@]2(O)c3c(OC)cc(OC)cc3O[C@@]2(c2ccc(OC)cc2)[C@@H]1c1ccccc1", "tested on": "A549", "assay": "cytotoxicity", "conditions": "72 (unit not given)", "endpoint": "CC50", "value": "0.0193 µM"}
{"Compound": "c1nc(N2CCCCCC2)cnc1CNC12CC3CC(CC(C3)C1)C2", "tested on": "A549", "assay": "MTT", "endpoint": "CC50", "value": "> 100 µM"}
{"Compound": "CC[C@H](C)[C@H](NC(=O)[C@H](CO)NC(=O)[C@@H](NC(=O)[C@@H](N)CCC(=O)O)C(C)C)C(=O)N[C@@H](CCC(=O)O)C(=O)N[C@H](C(=O)N[C@@H](CC(=O)O)C(=O)N[C@H](C(=O)N[C@H](C(=O)N[C@@H](CC(=O)O)C(=O)N[C@@H](CCC(=O)O)C(=O)N[C@H](C(=O)N[C@@H](CC(N)=O)C(=O)O)C(C)C)[C@@H](C)CC)[C@@H](C)CC)[C@@H](C)O", "tested on": "A549", "conditions": "300 µM, 24 h", "endpoint": "viability", "value": "no effect"}
{"Compound": "CC(C)Cc1ccc(C(C)C(=O)[O-])cc1.CC(C)Cc1ccc(C(C)C(=O)[O-])cc1.[Cu+2].c1ccncc1.c1ccncc1 (centres unmarked)", "tested on": "A549", "assay": "cytotoxicity, MTT", "conditions": "48 h", "endpoint": "IC50", "value": "72 µM"}
{"Compound": "CC(=O)N[C@@H](CO)C(=O)N[C@@H](CC(=O)O)C(=O)N[C@@H](CCCCNC(=O)CCCC[C@@H]1SC[C@@H]2NC(=O)N[C@@H]21)C(=O)N1CCC[C@H]1C(=O)O", "tested on": "A549", "assay": "flow cytometry", "conditions": "40 µg/mL, 5 min, 37 °C", "how to read": "relative to: cells", "endpoint": "cellular uptake", "value": "12.6 ± 1.2%"}
{"Compound": "CN[C@](C)(C[18F])C(=O)O", "tested on": "A549 tumour model", "test system": "host not given, kidney", "conditions": "30 min, tumour-bearing", "endpoint": "tracer uptake", "value": "11 %ID/g"}
{"Compound": "COc1ccccc1CNC(=O)CSc1c[nH]c2ccccc12", "tested on": "A549", "assay": "cytotoxicity, CCK-8", "endpoint": "CC50", "value": "76.2 µM"}
{"Compound": "c1nc(N2CCCCCC2)ncc1CNC12CC3CC(CC(C3)C1)C2", "tested on": "A549", "assay": "MTT", "endpoint": "CC50", "value": "29.3 µM"}
{"note": "A few entries again:"}
{"Compound": "c1nc(N2CCCCCC2)cnc1CNC12CC3CC(CC(C3)C1)C2", "tested on": "A549", "assay": "MTT", "endpoint": "CC50", "value": "> 100 µM"}
